{"data": "Measurements collected from several papers", "CTSL": "Procathepsin L (CTSL, Homo sapiens, UniProt P07711)", "DRD3": "D(3) dopamine receptor (DRD3, Homo sapiens, UniProt P35462)", "note": "Compare with care: the assays were run in different laboratories.", "chain of UniProt P07711 (whole entry, looked up)": "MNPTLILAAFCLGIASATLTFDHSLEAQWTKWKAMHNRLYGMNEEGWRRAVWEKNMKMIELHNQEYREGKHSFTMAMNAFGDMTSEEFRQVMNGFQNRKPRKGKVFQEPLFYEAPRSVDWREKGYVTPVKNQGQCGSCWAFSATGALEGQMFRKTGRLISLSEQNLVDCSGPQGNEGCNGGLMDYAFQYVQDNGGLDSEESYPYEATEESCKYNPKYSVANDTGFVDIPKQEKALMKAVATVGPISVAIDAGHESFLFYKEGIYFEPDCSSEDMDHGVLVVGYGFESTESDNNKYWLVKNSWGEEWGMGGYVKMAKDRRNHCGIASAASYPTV", "chain of UniProt P35462 (whole entry, looked up)": "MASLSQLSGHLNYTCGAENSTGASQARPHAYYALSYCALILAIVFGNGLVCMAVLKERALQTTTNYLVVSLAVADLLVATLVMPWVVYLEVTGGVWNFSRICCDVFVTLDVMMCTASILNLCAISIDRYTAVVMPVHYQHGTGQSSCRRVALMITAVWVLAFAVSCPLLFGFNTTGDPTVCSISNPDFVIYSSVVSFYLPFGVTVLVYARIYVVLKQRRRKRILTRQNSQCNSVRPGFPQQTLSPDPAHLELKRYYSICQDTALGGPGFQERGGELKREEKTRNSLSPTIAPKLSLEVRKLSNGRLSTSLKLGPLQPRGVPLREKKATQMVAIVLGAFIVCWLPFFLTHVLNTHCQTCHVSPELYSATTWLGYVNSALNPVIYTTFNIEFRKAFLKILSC", "chain of UniProt Q9UEE5 (whole entry, looked up)": "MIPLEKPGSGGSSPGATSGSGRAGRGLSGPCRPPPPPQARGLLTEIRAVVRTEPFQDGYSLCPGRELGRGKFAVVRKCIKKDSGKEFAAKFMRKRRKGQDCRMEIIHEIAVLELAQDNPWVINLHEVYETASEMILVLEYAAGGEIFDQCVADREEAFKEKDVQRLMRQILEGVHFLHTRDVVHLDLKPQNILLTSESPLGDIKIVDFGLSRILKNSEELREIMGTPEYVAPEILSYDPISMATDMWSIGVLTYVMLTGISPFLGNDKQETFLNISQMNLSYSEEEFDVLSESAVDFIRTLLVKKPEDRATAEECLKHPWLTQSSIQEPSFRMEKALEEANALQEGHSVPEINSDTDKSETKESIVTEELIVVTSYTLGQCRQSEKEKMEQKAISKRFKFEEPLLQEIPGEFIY", "chain of UniProt O95819 (whole entry, looked up)": "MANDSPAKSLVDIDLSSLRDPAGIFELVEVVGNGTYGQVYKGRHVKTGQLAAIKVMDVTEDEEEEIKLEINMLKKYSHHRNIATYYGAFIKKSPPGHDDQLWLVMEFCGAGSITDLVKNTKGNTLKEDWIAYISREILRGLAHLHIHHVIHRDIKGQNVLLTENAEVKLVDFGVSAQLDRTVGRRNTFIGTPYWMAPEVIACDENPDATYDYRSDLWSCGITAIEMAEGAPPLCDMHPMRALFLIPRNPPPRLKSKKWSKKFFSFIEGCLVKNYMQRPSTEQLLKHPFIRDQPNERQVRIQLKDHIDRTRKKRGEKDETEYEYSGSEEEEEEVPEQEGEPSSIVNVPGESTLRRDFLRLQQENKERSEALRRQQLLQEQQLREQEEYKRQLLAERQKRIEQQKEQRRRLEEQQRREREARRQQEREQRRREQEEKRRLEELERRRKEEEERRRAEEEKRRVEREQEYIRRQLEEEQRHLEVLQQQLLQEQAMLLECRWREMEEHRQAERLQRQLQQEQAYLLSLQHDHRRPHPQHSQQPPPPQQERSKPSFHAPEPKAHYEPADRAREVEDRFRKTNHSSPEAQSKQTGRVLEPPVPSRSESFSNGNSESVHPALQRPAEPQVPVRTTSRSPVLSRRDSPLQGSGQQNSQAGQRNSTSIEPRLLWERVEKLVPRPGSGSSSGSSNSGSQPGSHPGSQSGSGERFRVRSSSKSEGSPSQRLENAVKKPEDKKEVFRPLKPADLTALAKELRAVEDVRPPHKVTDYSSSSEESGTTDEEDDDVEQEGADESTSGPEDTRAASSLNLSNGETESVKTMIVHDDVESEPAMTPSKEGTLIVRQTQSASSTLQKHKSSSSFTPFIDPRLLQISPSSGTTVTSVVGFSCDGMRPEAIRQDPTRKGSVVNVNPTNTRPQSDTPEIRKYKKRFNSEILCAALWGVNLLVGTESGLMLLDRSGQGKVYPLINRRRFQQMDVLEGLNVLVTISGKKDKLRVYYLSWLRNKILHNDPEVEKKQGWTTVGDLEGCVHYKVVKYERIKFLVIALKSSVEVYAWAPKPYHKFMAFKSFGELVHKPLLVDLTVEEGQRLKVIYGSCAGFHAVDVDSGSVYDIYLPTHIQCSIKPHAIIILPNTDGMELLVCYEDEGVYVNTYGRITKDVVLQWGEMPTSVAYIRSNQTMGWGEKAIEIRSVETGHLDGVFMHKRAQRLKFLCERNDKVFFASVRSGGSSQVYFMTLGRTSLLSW", "chain of UniProt P08069 (whole entry, looked up)": "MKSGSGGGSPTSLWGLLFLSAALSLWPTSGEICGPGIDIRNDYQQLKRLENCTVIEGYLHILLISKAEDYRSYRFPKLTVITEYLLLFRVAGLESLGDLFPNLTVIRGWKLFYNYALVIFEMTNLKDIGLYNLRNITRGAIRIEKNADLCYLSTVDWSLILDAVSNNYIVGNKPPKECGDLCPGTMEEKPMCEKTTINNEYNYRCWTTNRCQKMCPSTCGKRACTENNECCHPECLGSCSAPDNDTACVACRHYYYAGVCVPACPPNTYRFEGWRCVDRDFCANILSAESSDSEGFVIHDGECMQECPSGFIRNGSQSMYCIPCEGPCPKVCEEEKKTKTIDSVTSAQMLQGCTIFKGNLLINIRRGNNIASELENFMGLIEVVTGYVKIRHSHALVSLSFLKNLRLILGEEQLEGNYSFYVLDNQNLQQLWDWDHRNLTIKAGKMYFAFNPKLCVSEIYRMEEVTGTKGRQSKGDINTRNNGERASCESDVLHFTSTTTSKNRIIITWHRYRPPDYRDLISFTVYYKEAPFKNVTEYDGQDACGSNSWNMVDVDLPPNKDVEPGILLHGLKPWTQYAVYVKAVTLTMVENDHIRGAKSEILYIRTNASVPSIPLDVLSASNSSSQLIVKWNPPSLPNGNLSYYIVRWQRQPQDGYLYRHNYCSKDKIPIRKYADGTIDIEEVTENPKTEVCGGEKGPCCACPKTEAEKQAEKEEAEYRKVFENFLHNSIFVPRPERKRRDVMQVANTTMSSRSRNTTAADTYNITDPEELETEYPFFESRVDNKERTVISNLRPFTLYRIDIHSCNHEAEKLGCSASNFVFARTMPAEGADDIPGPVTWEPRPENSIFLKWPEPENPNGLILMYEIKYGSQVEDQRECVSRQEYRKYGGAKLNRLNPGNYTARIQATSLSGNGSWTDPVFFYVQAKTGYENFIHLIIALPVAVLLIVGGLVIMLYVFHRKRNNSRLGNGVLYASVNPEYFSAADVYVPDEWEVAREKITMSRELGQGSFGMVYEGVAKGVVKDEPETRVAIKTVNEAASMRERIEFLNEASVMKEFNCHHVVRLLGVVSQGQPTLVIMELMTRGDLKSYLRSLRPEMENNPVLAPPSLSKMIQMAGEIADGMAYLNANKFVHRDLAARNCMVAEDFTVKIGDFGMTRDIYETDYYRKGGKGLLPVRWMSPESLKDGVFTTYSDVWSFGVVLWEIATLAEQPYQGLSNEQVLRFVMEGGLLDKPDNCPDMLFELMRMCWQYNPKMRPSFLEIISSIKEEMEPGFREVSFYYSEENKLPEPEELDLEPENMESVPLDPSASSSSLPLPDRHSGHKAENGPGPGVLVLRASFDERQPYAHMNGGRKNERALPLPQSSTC", "chain of UniProt Q9P1W9 (whole entry, looked up)": "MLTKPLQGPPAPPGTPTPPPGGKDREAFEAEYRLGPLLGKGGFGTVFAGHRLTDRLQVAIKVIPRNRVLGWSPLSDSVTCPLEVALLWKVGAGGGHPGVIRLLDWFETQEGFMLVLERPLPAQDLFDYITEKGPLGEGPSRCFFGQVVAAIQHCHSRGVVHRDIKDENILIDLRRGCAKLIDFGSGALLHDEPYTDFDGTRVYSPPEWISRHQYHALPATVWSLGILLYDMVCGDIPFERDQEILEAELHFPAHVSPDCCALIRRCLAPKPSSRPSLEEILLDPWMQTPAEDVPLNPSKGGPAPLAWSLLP", "chain of UniProt Q9BVS4 (whole entry, looked up)": "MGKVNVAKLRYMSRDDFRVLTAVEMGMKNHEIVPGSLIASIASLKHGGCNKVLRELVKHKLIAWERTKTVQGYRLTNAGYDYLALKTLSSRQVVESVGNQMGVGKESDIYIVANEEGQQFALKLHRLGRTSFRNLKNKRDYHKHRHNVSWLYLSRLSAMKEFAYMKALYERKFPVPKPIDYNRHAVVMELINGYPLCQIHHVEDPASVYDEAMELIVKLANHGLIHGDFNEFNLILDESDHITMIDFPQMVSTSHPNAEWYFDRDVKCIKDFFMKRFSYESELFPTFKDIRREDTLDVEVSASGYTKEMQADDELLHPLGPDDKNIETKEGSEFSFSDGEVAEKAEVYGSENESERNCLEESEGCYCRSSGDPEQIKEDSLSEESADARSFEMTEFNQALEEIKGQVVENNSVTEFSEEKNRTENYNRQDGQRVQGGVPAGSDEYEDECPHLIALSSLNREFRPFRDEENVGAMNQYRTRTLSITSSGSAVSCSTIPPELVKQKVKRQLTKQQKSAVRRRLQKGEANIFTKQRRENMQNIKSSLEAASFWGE", "chain of UniProt P61075 (whole entry, looked up)": "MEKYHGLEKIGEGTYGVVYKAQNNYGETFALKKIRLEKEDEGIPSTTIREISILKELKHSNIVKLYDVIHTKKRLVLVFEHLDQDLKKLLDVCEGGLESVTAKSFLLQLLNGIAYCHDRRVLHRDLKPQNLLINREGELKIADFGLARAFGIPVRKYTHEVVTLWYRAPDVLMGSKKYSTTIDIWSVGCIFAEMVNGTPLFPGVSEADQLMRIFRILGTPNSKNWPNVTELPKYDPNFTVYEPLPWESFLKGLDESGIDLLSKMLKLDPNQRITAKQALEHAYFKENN"}
{"SMILES": "Nc1ncnc2occ(-c3ccc(NC(=O)Nc4cc(C(F)(F)F)ccc4F)cc3)c12", "target": "Tyrosine-protein kinase ABL1, non-phosphorylated (ABL1, Homo sapiens, UniProt P00519, H396P)", "assay": "cell-free assay, inhibitor", "setting": "20 µM", "measurement": "remaining signal", "result": "0%"}
{"SMILES": "O=C(/C=C/c1ccc(O)c(O)c1)c1ccc(O)cc1O", "target": "CTSL", "assay": "enzyme activity, inhibitor", "setting": "100 µM", "measurement": "remaining activity", "result": "1.16%"}
{"SMILES": "Cc1[nH]c(C)c(S(=O)(=O)Nc2ccc(C(F)(F)F)c(Cl)c2)c1C(=O)N1CCC(C#N)C1 (stereo not drawn)", "target": "DRD3", "assay": "β-arrestin recruitment, agonist", "setting": "90 min", "measurement": "Emax", "result": "110%"}
{"SMILES": "O=c1c2ccccc2[nH]c2ccccc12", "target": "CTSL", "assay": "enzyme activity, inhibitor", "setting": "100 µM", "measurement": "remaining activity", "result": "145%"}
{"SMILES": "COc1cc(-c2cncc3c2CN(C)Cc2cc(N4CCNCC4)ccc2-3)cc(OC)c1OC", "target": "MAP4K4 (Homo sapiens, UniProt O95819)", "assay": "enzyme activity, inhibitor", "setting": "1 µM", "measurement": "remaining activity", "result": "75%"}
{"SMILES": "COc1ccc2c3ccnc4ccc(=O)n(c2c1)c43", "target": "CTSL", "assay": "enzyme activity, inhibitor", "setting": "100 µM", "measurement": "remaining activity", "result": "125%"}
{"SMILES": "Cc1[nH]c(C)c(S(=O)(=O)Nc2ccc(C3CC3)c(Cl)c2)c1C(=O)N1CCC(F)(F)C1", "target": "DRD3", "assay": "β-arrestin recruitment, agonist", "setting": "90 min", "measurement": "Emax", "result": "103%"}
{"SMILES": "Cc1cc([C@@H](C)Nc2ccccc2C(=O)O)c2nc(N3CCC(F)(F)CC3)c(C#N)c(=O)n2c1", "target": "IGF1R (Homo sapiens, UniProt P08069)", "assay": "binding, competition with immobilised ligand", "setting": "1 µM", "measurement": "remaining binding", "result": "100%"}
{"SMILES": "COc1cc(-c2cc(C(C)=O)n3ccccc23)c(OC)cc1CN1CC(O)C1", "target": "BRD9 (Homo sapiens, UniProt Q9H8M2)", "assay": "thermal stability, DSF", "setting": "200 µM", "measurement": "ΔTm", "result": "10.5 °C"}
{"SMILES": "C1=C/COCc2cc(ccc2OCCN2CCCC2)Nc2nccc(n2)-c2cccc(c2)COC/1", "target": "PRKCH (Homo sapiens, UniProt P24723)", "assay": "binding", "setting": "0.1 µM", "measurement": "remaining binding", "result": "100%"}
{"SMILES": "CCCCC(=O)Nc1ccc(-c2ccc3ncn(CCC)c(=O)c3c2)cn1", "target": "RIOK2 (Homo sapiens, UniProt Q9BVS4)", "assay": "binding, competition with immobilised ligand", "setting": "0.5 µM", "measurement": "remaining binding", "result": "100%"}
{"SMILES": "CNc1ncc2c(/C=C/C(=O)N3CCC(OC)CC3)nn(Cc3cccc(C(F)(F)F)c3)c2n1", "target": "STK17A (Homo sapiens, UniProt Q9UEE5)", "assay": "enzyme activity, inhibitor, radiometric", "setting": "1 µM", "measurement": "remaining activity", "result": "103%"}
{"SMILES": "CC[C@H](C)[C@H](NC(=O)[C@@H](N)CC(C)C)C(=O)N1CCC[C@H]1C(=O)N1CCC[C@H]1C(=O)N[C@@H](Cc1ccccc1)C(=O)N[C@@H](Cc1c[nH]c2ccccc12)C(=O)N[C@@H](CCCCN)C(N)=O", "target": "CTSL", "assay": "enzyme activity, inhibitor", "setting": "100 µM", "measurement": "remaining activity", "result": "93.1%"}
{"SMILES": "CC[C@H](C)[C@H](NC(=O)[C@H](CCC(N)=O)NC(=O)[C@H](CC(C)C)NC(=O)[C@H](CCSC)NC(=O)[C@H](CCCCN)NC(=O)[C@H](CO)NC(=O)[C@H](CO)NC(=O)[C@H](CCSC)NC(=O)[C@H](CC(C)C)NC(=O)[C@H](CC(N)=O)NC(=O)[C@@H](NC(=O)[C@@H](NC(=O)[C@H](CO)NC(=O)[C@H](CC(C)C)NC(=O)[C@H](CS)NC(=O)[C@H](CCCNC(=N)N)NC(=O)[C@H](CC(=O)O)NC(=O)[C@H](Cc1c[nH]c2ccccc12)NC(=O)[C@H](Cc1ccccc1)NC(=O)[C@H](C)NC(=O)[C@H](CCC(=O)O)NC(=O)[C@@H](N)CCCCN)C(C)C)[C@@H](C)CC)C(=O)N[C@@H](CC(N)=O)C(=O)N[C@@H](C)C(=O)O", "target": "GSK3B (Homo sapiens, UniProt P49841)", "assay": "enzyme activity, inhibitor, radiometric", "setting": "10 µM, 20 min", "measurement": "remaining activity", "result": "99%"}
{"SMILES": "CC(=O)/C=C/c1c[nH]c2ccccc12", "target": "CTSL", "assay": "enzyme activity, inhibitor", "setting": "100 µM", "measurement": "remaining activity", "result": "71.5%"}
{"SMILES": "CN(C)c1nccc(-c2cnn3ncccc23)n1", "target": "CRK2 (Plasmodium falciparum, UniProt P61075)", "assay": "cell-free assay", "setting": "1 µM", "measurement": "remaining signal", "result": "100%"}
{"SMILES": "COc1ccc(C=CC(=O)c2ccc(OC)cc2)cc1", "target": "CTSL", "assay": "enzyme activity, inhibitor", "setting": "100 µM", "measurement": "remaining activity", "result": "101%"}
{"SMILES": "C=CC(=O)N1CCC(COCC(=O)N2CCN(c3nc(-c4cnc(N)nc4C(F)F)nc(N4CCOC[C@@H]4C)n3)CC2)CC1", "target": "PIM2 (Homo sapiens, UniProt Q9P1W9)", "assay": "binding, competition with immobilised ligand", "setting": "1 µM", "measurement": "remaining binding", "result": "100%"}
{"note": "A few entries again:"}
{"SMILES": "COc1ccc2c3ccnc4ccc(=O)n(c2c1)c43", "target": "CTSL", "assay": "enzyme activity, inhibitor", "setting": "100 µM", "measurement": "remaining activity", "result": "125%"}
